{"data": "Assay results of several laboratories", "cell line": "MRC5", "note": "pEC50, pIC50: −log10 of the molar value."}
{"Compound": "N#C/C(=C\\c1cn(-c2ccccc2)nc1-c1cccc(Cl)c1)c1nc2ccccc2[nH]1", "test": "cell growth or viability, ATP luminescence", "setting": "72 h", "endpoint": "pIC50", "value": "< 4.00"}
{"Compound": "N#Cc1ccc2cccc(O)c2n1", "test": "MTT", "setting": "concentration not given", "endpoint": "cytotoxicity", "value": "not toxic"}
{"Compound": "O=C1C(Cl)=C(Cl)C(=O)c2c1cccc2[N+](=O)[O-]", "test": "cytotoxicity, MTT", "setting": "48 h", "endpoint": "pIC50", "value": "3.93 to 5.30"}
{"Compound": "O=S(=O)(NCc1csc(-c2ccccc2)n1)c1ccc2ccccc2c1", "test": "cell growth or viability", "endpoint": "pEC50", "value": "< 4.30"}
{"Compound": "O=C1C=C(O)C(=O)c2ccccc21", "test": "cytotoxicity, MTT", "setting": "48 h", "endpoint": "pIC50", "value": "3.93 to 5.30"}
{"Compound": "N#C/C(=C\\c1cn(-c2ccccc2)nc1-c1cccc(Br)c1)c1nc2ccccc2[nH]1", "test": "cell growth or viability, ATP luminescence", "setting": "72 h", "endpoint": "pIC50", "value": "< 4.00"}
{"Compound": "Cc1nn(-c2ccccc2)nc1CNS(=O)(=O)c1cccs1", "test": "cell growth or viability", "endpoint": "pEC50", "value": "< 4.30"}
{"Compound": "COc1ccc([C@@H]2CC(=O)c3c(O)cc(O[C@@H]4O[C@H](CO[C@@H]5O[C@@H](C)[C@H](O)[C@@H](O)[C@H]5O)[C@@H](O)[C@H](O)[C@H]4O)cc3O2)cc1O", "test": "cell growth or viability, MTS", "setting": "150 µg/mL, 48 h", "endpoint": "viability", "value": "43.4%"}
{"Compound": "Oc1c(Br)ccc2cccnc12", "test": "cell growth or viability, MTT", "setting": "48 h", "endpoint": "pIC50", "value": 4.66}
{"Compound": "N#C/C(=C\\c1cn(-c2ccccc2)nc1-c1ccc(Cl)cc1)c1nc2ccccc2[nH]1", "test": "cell growth or viability, ATP luminescence", "setting": "72 h", "endpoint": "pIC50", "value": "< 4.00"}
{"note": "Some of these lines once more:"}
{"Compound": "O=C1C(Cl)=C(Cl)C(=O)c2c1cccc2[N+](=O)[O-]", "test": "cytotoxicity, MTT", "setting": "48 h", "endpoint": "pIC50", "value": "3.93 to 5.30"}
